Assay results gathered from unrelated publications.
Lines come from different studies, so protocols differ. “And” joins repeats or separate records; there may be more than shown. Numbers after ± are the reported error.
Chain of UniProt Q02880 (whole entry, looked up): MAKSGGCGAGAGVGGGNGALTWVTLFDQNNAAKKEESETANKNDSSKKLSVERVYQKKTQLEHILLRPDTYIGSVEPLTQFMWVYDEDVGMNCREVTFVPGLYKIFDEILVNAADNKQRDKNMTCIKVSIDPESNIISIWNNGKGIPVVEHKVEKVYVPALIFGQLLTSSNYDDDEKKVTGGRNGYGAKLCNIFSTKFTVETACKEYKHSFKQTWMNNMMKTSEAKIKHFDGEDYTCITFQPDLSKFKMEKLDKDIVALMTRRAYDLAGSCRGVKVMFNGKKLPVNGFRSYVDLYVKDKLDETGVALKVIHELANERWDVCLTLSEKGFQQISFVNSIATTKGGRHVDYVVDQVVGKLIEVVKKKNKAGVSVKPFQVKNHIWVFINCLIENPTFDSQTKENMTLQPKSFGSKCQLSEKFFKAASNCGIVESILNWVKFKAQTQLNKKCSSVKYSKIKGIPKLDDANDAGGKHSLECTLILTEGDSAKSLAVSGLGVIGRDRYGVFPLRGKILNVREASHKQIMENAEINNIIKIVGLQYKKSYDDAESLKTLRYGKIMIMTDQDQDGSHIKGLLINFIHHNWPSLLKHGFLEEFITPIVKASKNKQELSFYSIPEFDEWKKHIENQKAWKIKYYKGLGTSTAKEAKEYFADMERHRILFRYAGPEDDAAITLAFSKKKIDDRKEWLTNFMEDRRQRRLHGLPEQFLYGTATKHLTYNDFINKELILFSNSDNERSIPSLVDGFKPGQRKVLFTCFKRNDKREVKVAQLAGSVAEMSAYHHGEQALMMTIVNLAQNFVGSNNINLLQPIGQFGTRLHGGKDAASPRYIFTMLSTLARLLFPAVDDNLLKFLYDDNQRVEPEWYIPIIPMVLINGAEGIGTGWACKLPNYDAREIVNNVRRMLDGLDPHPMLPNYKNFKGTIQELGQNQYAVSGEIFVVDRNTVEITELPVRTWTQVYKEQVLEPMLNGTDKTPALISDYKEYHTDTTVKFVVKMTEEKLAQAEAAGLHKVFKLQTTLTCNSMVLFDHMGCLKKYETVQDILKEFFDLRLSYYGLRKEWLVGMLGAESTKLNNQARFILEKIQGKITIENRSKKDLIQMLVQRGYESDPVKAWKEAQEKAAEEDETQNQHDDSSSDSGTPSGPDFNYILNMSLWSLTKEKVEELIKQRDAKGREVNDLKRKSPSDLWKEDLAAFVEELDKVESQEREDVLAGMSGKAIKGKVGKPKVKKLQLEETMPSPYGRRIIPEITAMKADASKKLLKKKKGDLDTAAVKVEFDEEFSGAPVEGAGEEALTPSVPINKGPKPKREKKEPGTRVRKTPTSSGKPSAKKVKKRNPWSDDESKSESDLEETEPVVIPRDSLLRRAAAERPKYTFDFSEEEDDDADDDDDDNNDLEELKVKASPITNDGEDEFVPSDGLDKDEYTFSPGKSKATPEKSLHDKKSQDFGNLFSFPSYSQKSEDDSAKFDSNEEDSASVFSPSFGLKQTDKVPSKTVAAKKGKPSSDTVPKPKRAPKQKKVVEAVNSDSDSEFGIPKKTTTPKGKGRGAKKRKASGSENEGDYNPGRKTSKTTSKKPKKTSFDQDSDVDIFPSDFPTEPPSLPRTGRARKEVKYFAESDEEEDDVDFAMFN

Compound	target or system	assay	test system	setting	scale	measurement	value
Fc1ccccc1Cc1nc(-c2nc(C(F)(F)F)n[nH]2)cn2ccnc12			healthy human subjects, both sexes	oral, 10 mg, fasted		subjects with hepatic enzyme increased	7.1%
OC[C@H]1O[C@@H](O[C@@H]2[C@@H](O)[C@H](O[C@@H]3[C@@H](O)[C@H](O[C@@H]4[C@@H](O)[C@H](O[C@@H]5[C@@H](O)[C@H](O[C@H]6[C@H](O)[C@@H](CO)OC(O)[C@@H]6O)O[C@H](CO)[C@H]5O)O[C@H](CO)[C@H]4O)O[C@H](CO)[C@H]3O)O[C@H](CO)[C@H]2O)[C@H](O)[C@@H](O)[C@@H]1O (stereo partly drawn)	uncharacterized protein (Bacteroides thetaiotaomicron, UniProt A0A173VPY3)	ITC		pH 7.0, 25 °C		-TΔS	33.1 kcal/mol
COC(=O)Nc1c(N)nc(-c2nn(Cc3ccccc3F)c3ncc(F)cc23)nc1N			human, male, fasting, plasma	15 mg single dose, alone, geometric mean		Cmax	402 ng/mL
COc1cc([C@@H]2c3cc4c(cc3[C@@H](O[C@@H]3O[C@@H]5CO[C@@H](C)O[C@H]5[C@H](O)[C@H]3O)[C@H]3COC(=O)[C@H]23)OCO4)cc(OC)c1O	DNA topoisomerase 2-beta (TOP2B, Homo sapiens, UniProt Q02880)	decatenation		100 µM		mean decatenated DNA	89.8% and 91.5%
O=C(Nc1nc2cccc(-c3ccc(CN4CCS(=O)(=O)CC4)cc3)n2n1)C1CC1		measured: injury or procedural complication	rheumatoid arthritis patients	oral, 75 mg once daily, 4 weeks, any relatedness		patients with adverse event	0%
CC(C)(C(=O)N1CCOc2c(C#N)cncc2C1)C(F)F		measured: injury, poisoning, procedural complications	human	oral, 20 mg once daily, 14 days, multiple ascending dose		subjects with adverse event	0%
[H]/N=C(/N)N/C(=N/[H])NCCc1ccccc1	primary human hepatocytes	spare respiratory capacity, Seahorse OCR		4 h		CC50	15 ± 5.2 µM
O=C1CC2(CCCC2)CC(=O)N1CCCCN1CCN(c2ncccn2)CC1			human liver microsomes	10 µM, 30 min		remaining compound	2.29 ± 0.95%
CC1COc2ccccc2N1C(=O)C(Cl)Cl (stereo not drawn)		carboxylesterase hydrolysis	rhesus monkey, female, liver microsomes	5 µM, 30 min, pH 7.4, without NADPH		enantiomeric fraction	0.25
CO/N=C(\C(=O)N[C@@H]1C(=O)N2C(C(=O)O)=C(COC(C)=O)CS[C@H]12)c1csc(N)n1	Salmonella enterica serovar Infantis	broth microdilution	clinical isolate RKI-No 277/14			MIC	> 16 µg/mL
Cc1cc(-c2nccc3c2ccn3CC(=O)Nc2ccc(-c3cnccn3)cn2)ccn1			healthy human volunteers	oral, 5 mg once daily, 14 days, multiple ascending dose		injury or procedural TEAEs	25%
CN(C)C(=N)N=C(N)N		measured: injury, poisoning, procedural complications	healthy men	oral, dose not given, 8 days, treatment-emergent, crossover trial		subjects with adverse event	4.5%
[Ca+2]	uncharacterized protein (Bacteroides thetaiotaomicron, UniProt Q8A183)	phosphatase activity, activator, phosphate release		5 mM, EDTA-treated enzyme, with: substrate 4 mM	baseline: activity with Mg2+	relative specific activity	0.057
Cc1c(C(=O)C(=O)N2CCn3nccc3C2)cc(C(=O)NCc2cccnc2N2CCCC2)n1C	Replicase polyprotein 1ab, nsp14 (rep, Severe acute respiratory syndrome coronavirus 2, UniProt P0DTD1)	inhibitor				IC50	> 6.25 µM
C[C@H]1O[C@@H](O[C@H]2[C@@H](O)C[C@H](O[C@H]3[C@@H](O)C[C@H](O[C@H]4CC[C@@]5(C)[C@H](CC[C@@H]6[C@@H]5C[C@@H](O)[C@]5(C)[C@@H](C7=CC(=O)OC7)CC[C@]65O)C4)O[C@@H]3C)O[C@@H]2C)C[C@H](O)[C@@H]1O			humans, plasma	dose not given, phase I DDI study, with: vericiguat		AUC(0-tau) at steady state	19.6 ng·h/mL
COC(=O)Nc1c(N)nc(-c2nn(Cc3ccccc3F)c3ncc(F)cc23)nc1N			healthy men	oral, 10 mg daily, multiple dose, with: sildenafil 25 mg	baseline: with over without sildenafil	Cmax ratio	1.01
COc1ccc([C@@H](O)c2cc(-c3ncnc4cc(N5CCOCC5)ccc34)c(F)cc2Cl)nn1			locally advanced rectal cancer patients	150 mg, with: capecitabine and radiotherapy		injury poisoning procedural TEAE	33%
CCn1c(=O)c(-c2cc(NC(=O)Nc3ccccc3)c(F)cc2Br)cc2cnc(NC)cc21		measured: injury and poisoning	healthy, matched to severe impairment	50 mg single dose		patients with grade 3+ TEAE	0%
N#CCC1CCN(c2nc(Nc3ccc(N4CCC(O)CC4)cc3)c3c(=O)[nH]ncc3n2)CC1		Olink multiplex, measured: CDCP1	human, serum	80 mg, day 29, unit not given	baseline: placebo	serum level change	-1.39
NS(=O)(=O)c1cc(C(=O)O)c(NCc2ccco2)cc1Cl		measured: injury, poisoning, procedural complications	healthy men	oral, 8 days, treatment-emergent, crossover trial		subjects with adverse event	0%
CC1COc2ccccc2N1C(=O)C(Cl)Cl (stereo not drawn)		carboxylesterase depletion, substrate	Sprague Dawley rat, male, rat liver microsomes	dose not given, 30 min, without NADPH	baseline: inactive microsomes	compound level	decreased

Repeated from above:
Compound	target or system	assay	test system	setting	scale	measurement	value
OC[C@H]1O[C@@H](O[C@@H]2[C@@H](O)[C@H](O[C@@H]3[C@@H](O)[C@H](O[C@@H]4[C@@H](O)[C@H](O[C@@H]5[C@@H](O)[C@H](O[C@H]6[C@H](O)[C@@H](CO)OC(O)[C@@H]6O)O[C@H](CO)[C@H]5O)O[C@H](CO)[C@H]4O)O[C@H](CO)[C@H]3O)O[C@H](CO)[C@H]2O)[C@H](O)[C@@H](O)[C@@H]1O (stereo partly drawn)	uncharacterized protein (Bacteroides thetaiotaomicron, UniProt A0A173VPY3)	ITC		pH 7.0, 25 °C		-TΔS	33.1 kcal/mol
O=C(Nc1nc2cccc(-c3ccc(CN4CCS(=O)(=O)CC4)cc3)n2n1)C1CC1		measured: injury or procedural complication	rheumatoid arthritis patients	oral, 75 mg once daily, 4 weeks, any relatedness		patients with adverse event	0%
